Published values pooled from the literature.
Every numbered part comes from another study and shows a few of its results, in no order.
Chain of UniProt P53779 (whole entry, looked up): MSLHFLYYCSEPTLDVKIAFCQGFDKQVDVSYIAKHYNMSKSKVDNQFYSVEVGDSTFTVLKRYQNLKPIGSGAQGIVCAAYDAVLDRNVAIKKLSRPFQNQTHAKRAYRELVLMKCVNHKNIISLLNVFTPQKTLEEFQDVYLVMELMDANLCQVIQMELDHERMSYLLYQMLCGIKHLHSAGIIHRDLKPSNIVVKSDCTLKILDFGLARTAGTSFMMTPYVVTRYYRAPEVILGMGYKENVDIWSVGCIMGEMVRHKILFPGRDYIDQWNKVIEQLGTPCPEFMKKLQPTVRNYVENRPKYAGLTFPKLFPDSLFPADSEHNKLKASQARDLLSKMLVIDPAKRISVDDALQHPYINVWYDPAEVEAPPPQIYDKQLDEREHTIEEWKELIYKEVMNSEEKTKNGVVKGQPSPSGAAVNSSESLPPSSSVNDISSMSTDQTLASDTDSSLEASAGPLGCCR
Chain of UniProt Q9Y3S1 (whole entry, looked up): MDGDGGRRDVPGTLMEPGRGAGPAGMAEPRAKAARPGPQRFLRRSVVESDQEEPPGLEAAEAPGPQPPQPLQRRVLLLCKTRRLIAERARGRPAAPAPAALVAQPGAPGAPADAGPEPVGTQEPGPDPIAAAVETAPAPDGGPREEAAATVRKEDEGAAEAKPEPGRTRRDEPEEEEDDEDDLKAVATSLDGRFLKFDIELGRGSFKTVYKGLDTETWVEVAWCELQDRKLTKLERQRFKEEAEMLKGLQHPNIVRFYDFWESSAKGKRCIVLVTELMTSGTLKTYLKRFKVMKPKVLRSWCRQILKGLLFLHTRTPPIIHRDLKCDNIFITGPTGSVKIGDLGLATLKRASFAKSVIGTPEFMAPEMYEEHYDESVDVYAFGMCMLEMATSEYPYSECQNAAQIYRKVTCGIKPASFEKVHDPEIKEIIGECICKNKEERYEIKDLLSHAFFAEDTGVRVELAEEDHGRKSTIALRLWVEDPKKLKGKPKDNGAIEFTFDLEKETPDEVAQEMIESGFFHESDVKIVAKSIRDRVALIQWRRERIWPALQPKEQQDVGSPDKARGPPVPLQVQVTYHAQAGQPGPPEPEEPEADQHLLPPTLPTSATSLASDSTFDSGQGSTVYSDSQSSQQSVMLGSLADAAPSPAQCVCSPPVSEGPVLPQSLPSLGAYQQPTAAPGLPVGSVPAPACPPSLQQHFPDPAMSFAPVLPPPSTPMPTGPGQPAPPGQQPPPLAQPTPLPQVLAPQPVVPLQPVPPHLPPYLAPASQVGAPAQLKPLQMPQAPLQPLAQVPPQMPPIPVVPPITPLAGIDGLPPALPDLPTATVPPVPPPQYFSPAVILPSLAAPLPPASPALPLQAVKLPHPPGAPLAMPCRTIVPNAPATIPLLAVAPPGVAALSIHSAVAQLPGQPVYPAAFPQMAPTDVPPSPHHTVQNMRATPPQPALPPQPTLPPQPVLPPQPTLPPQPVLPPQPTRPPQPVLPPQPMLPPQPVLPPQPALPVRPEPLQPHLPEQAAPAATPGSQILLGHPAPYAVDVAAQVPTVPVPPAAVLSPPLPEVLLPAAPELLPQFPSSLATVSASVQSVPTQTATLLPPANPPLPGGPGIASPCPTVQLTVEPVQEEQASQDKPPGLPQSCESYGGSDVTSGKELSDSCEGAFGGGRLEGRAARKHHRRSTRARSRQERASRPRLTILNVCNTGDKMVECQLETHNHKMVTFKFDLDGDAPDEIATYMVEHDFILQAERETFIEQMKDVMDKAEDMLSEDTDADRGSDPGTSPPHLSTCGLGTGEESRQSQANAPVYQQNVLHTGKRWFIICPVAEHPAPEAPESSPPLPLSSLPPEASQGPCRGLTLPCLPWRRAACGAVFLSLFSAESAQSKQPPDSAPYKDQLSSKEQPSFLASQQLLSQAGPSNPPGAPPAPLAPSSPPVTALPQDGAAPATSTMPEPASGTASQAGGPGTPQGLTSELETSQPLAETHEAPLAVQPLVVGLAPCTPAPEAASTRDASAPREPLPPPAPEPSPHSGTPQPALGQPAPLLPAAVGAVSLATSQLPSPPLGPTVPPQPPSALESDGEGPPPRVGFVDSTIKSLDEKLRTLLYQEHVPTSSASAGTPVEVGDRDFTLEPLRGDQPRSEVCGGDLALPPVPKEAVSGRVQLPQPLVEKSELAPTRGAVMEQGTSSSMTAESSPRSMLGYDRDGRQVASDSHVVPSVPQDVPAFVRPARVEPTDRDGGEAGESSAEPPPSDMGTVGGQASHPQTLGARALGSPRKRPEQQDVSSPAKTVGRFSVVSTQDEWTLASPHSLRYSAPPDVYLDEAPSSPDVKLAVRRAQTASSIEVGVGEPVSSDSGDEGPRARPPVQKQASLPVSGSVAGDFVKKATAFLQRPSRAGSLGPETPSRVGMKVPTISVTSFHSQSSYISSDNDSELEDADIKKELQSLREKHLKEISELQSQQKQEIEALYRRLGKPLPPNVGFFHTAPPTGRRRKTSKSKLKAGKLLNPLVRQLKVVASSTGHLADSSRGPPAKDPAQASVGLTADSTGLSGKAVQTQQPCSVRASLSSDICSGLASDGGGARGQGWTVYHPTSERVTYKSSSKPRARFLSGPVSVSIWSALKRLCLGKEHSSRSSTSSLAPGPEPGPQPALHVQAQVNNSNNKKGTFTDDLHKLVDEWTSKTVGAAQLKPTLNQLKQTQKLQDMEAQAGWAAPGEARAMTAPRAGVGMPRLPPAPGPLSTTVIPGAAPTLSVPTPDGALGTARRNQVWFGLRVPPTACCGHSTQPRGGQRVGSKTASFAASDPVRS
Chain of UniProt Q96PN8 (whole entry, looked up): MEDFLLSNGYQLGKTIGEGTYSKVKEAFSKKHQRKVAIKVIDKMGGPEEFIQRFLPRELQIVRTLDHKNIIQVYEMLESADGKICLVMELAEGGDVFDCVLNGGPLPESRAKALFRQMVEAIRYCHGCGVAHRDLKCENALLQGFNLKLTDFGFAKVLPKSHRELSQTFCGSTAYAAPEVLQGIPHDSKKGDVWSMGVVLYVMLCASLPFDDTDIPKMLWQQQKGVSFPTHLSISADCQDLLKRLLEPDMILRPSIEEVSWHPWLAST
Chain of UniProt Q8NE63 (whole entry, looked up): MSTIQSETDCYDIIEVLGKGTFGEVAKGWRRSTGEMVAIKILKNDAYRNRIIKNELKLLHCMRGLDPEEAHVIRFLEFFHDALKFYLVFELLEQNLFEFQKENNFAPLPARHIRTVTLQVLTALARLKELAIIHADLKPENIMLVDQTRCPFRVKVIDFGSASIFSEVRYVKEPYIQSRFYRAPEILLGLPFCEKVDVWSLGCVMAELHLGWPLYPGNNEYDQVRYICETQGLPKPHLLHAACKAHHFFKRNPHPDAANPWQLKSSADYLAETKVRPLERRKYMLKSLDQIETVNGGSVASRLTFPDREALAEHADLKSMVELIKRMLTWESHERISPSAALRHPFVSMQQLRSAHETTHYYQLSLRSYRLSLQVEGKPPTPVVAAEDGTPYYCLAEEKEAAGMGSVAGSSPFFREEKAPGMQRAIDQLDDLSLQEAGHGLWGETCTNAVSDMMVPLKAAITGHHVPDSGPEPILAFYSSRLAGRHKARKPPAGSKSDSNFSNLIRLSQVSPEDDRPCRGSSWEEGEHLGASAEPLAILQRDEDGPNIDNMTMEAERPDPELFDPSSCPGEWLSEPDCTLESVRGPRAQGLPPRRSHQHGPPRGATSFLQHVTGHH

Set 1 — observed: cell-free assay; method: competition with immobilised ligand; concentration: 0.1 µM; measurement: remaining binding
SMILES: O=C(NCCCC1CCCCC1)c1ccc(CNC(=O)c2cnn(-c3ccccc3)c2C(F)(F)F)cc1
target = Mitogen-activated protein kinase 10 (MAPK10, Homo sapiens, UniProt P53779); result = 100%
target = Serine/threonine-protein kinase WNK2 (WNK2, Homo sapiens, UniProt Q9Y3S1); result = 100%
target = Homeodomain-interacting protein kinase 4 (HIPK4, Homo sapiens, UniProt Q8NE63); result = 100%
target = Serine/threonine-protein kinase mTOR (MTOR, Homo sapiens, UniProt P42345); result = 100%
target = Epidermal growth factor receptor (EGFR, Homo sapiens, UniProt P00533, del747-750/T751S); result = 100%
target = Receptor-interacting serine/threonine-protein kinase 2 (RIPK2, Homo sapiens, UniProt O43353); result = 97%
target = Mast/stem cell growth factor receptor Kit (KIT, Homo sapiens, UniProt P10721, V559D); result = 100%
target = Testis-specific serine/threonine-protein kinase 3 (TSSK3, Homo sapiens, UniProt Q96PN8); result = 100%

Set 2 — observed: enzyme activity; mode: inhibitor; concentration: 0.5 µM; relative to: control; measurement: remaining activity
Target: Serine/threonine-protein kinase ULK1 (ULK1, Homo sapiens, UniProt O75385)
Chain of UniProt O75385 (whole entry, looked up): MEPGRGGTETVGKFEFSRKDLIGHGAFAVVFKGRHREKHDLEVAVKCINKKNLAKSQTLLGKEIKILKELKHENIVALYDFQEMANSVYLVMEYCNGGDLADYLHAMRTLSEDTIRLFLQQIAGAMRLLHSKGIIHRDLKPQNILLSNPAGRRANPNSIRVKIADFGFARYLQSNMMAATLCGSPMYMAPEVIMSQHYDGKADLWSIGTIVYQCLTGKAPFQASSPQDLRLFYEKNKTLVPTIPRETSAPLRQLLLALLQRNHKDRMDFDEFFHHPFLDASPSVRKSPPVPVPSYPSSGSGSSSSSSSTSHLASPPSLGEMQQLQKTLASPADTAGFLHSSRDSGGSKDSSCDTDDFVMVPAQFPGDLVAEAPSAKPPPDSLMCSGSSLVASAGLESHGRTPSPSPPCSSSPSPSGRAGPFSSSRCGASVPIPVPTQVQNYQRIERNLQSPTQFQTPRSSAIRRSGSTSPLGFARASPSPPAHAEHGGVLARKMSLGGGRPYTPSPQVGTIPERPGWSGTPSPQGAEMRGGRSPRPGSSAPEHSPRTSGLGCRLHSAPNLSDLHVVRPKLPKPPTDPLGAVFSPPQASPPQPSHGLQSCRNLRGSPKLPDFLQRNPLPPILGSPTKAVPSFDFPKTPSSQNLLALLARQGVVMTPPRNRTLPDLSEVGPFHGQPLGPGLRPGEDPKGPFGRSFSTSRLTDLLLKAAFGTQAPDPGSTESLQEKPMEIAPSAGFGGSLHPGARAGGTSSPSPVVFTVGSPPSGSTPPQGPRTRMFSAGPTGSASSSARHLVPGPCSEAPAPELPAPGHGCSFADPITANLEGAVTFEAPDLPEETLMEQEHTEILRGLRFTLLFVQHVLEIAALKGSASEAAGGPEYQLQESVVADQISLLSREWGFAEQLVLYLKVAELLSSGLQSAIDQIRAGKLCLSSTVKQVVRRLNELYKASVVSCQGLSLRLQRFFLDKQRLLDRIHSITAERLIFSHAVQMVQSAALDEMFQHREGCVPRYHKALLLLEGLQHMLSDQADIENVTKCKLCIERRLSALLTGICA
SMILES = N#CC(C#N)=C(N)/C(C#N)=C/c1ccc(O)cc1; result = 89.3%
SMILES = Oc1ccc(-c2nc(-c3ccncc3)c(-c3ccc(F)cc3)[nH]2)cc1; result = 89%
SMILES = CCOC(=O)c1c(C)[nH]c(/C=C2\C(=O)Nc3ccccc32)c1C; result = 80.1%
SMILES = Cc1nc(-c2ccccc2)c(-c2ccncc2)o1; result = 84.6%
SMILES = O=c1c2ccccc2[nH]c(=S)n1CCN1CCC(=C(c2ccc(F)cc2)c2ccc(F)cc2)CC1; result = 98.1%
SMILES = O=S(=O)(c1cccc2cnccc12)N1CCCNCC1; result = 103%
SMILES = O=C1NC(=O)C(c2cn(CCCO)c3ncccc23)=C1c1cnccn1; result = 102%
SMILES = O=C(Nc1cccc(Nc2cc(Nc3cccc(C(F)(F)F)c3)ncn2)c1)C1CC1; result = 100%
SMILES = Cc1ccc(NC(=O)c2ccc(CN3CCN(C)CC3)cc2)cc1Nc1nc(-c2cccnc2)cs1; result = 97.7%
SMILES = NCCNc1ncc(C(N)=O)c(Nc2cccc(C(F)(F)F)c2)n1; result = 74.1%
SMILES = Nc1ccc2ncnc(NCCc3ccc(Oc4ccccc4)cc3)c2c1; result = 105%
SMILES = Nc1[nH]nc2nc3ccccc3nc12; result = 106%
SMILES = COc1ccc(C(=O)Nc2sc3c(c2C(N)=O)CCCC3)cc1OC; result = 96%
SMILES = COc1cc2nccc(Oc3ccc(NC(=S)NC(=O)c4ccccc4C)cc3)c2cc1OC; result = 95%
SMILES = COc1ccc(CNC(=O)Nc2ncc([N+](=O)[O-])s2)cc1; result = 97.7%

Set 3 — organism: Sarcocystis neurona; observed: parasite growth; concentration: 10 µM; time: 96 h; notes: secondary screen; measurement: inhibition
Structure (SMILES) = CCCCc1nc(Cl)c(CO)n1Cc1ccc(-c2ccccc2-c2nn[nH]n2)cc1; result = -17.3%
Structure (SMILES) = COC(=O)CCc1ccc(OCC(O)CNC(C)C)cc1 (stereo not drawn); result = -26.2%
Structure (SMILES) = Cc1ncc([N+](=O)[O-])n1CCO; result = -17.8%
Structure (SMILES) = Cc1cccc(C)c1NC(=O)C(C)N (stereo not drawn); result = -5.9%
Structure (SMILES) = O=[N+]([O-])c1cccc2cn[nH]c12; result = -12%
Structure (SMILES) = NC[C@H]1CC[C@H](C(=O)Oc2ccc(CCC(=O)O)cc2)CC1; result = -26.1%
Structure (SMILES) = CC(=O)OCC(CCn1cnc2cnc(N)nc21)COC(C)=O; result = -27.2%
Structure (SMILES) = CCOC(=O)[C@@]1(CCCCCCOc2ccc(Cl)cc2)CO1; result = -14%

Set 4 — cell line: HaCaT; concentration: 100 µM; time: 36 h; measurement: viability
Compound = CCCCC(=O)O[C@]1(C(=O)CO)[C@@H](C)C[C@H]2[C@@H]3CCC4=CC(=O)C=C[C@]4(C)[C@@]3(F)[C@@H](O)C[C@@]21C; result = 46.2%
Compound = O=C1CN2Cc3c(ccc(Cl)c3Cl)N=C2N1; result = 90.7%
Compound = C[C@]12C=CC(=O)C=C1CC[C@H]1[C@@H]3C[C@@H](O)[C@](O)(C(=O)CO)[C@@]3(C)C[C@H](O)[C@@]12F; result = 95.7%
Compound = CC(=O)c1ccc2c(c1)N(CCCN1CCC(CCO)CC1)c1ccccc1S2; result = 6.34%
Compound = CCOc1ccc(NC(C)=O)cc1; result = 96%
Compound = Cn1cnc2c1c(=O)[nH]c(=O)n2C; result = 95%
Compound = O=C1c2c(O)cccc2C([C@@H]2O[C@H](CO)[C@@H](O)[C@H](O)[C@H]2O)c2cc(CO)cc(O)c21 (stereo partly drawn); result = 98.8%
Compound = COc1ccc2c(c1)c(CC(=O)OCC(=O)O)c(C)n2C(=O)c1ccc(Cl)cc1; result = 91.8%

A few entries again (set 2):
SMILES = O=C(Nc1cccc(Nc2cc(Nc3cccc(C(F)(F)F)c3)ncn2)c1)C1CC1; result = 100%
SMILES = Oc1ccc(-c2nc(-c3ccncc3)c(-c3ccc(F)cc3)[nH]2)cc1; result = 89%
SMILES = COc1ccc(CNC(=O)Nc2ncc([N+](=O)[O-])s2)cc1; result = 97.7%
SMILES = NCCNc1ncc(C(N)=O)c(Nc2cccc(C(F)(F)F)c2)n1; result = 74.1%
SMILES = COc1cc2nccc(Oc3ccc(NC(=S)NC(=O)c4ccccc4C)cc3)c2cc1OC; result = 95%
